Results pooled from the literature.
Parts stem from different laboratories: compare values within a part only. Changes are numbered by the printed parent chain.

Set 1
Target: ABI1, truncated, D143A, DHFR fusion (Arabidopsis thaliana)
Method: DHFR PCA, deep sequencing
Sample: yeast
Notes: methotrexate growth selection, single substitutions
Added: (+)-ABA 0.0091 µM
Baseline: wild-type fitted maximum
Direction: higher = stronger binding
Parent: PYL1, truncated, DHFR fusion (Arabidopsis thaliana); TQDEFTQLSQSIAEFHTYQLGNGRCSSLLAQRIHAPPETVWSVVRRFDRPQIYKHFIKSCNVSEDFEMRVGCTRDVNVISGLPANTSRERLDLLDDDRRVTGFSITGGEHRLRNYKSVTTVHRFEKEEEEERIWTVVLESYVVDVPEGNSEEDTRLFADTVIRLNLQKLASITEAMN; partner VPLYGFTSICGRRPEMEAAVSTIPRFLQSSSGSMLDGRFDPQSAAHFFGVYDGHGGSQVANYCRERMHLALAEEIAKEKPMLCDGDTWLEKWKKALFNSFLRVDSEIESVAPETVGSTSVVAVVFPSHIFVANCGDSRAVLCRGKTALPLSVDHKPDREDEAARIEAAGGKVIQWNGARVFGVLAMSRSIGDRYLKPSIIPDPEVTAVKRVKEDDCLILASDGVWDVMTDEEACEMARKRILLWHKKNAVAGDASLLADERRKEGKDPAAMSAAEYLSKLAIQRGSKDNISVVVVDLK
Variant | relative binding score [%]
V62L | 16.2
Q10L | 5.06
L94W | 0.667
I52T | 42.3
E64M | -6.99
C72I | 6.08
G108K | -6.88
M176Y | 1.51
G108M | -4.25
L20R | 25.8
I133S | 43.7
L20P | 32.9
R163N | -1.97
L166Y | -1.18
E67P | 5.54
K126W | 10.1
I133N | 40.4
E109P | -2.51
T154H | -2.8
G102L | -8.11
K54T | 2.33
R49L | 0.449
I33T | 1.65
L166A | -1.03
N22D | 43

Set 2
Target: CCNB3, cyclin fold, Cln2 fusion (human)
Method: yeast growth competition, sequencing
Sample: yeast
Notes: strong parent motif
Baseline: not given
Direction: higher = stronger binding
Parent: SCAPER docking peptide (human); SNARRSLNFGGST; partner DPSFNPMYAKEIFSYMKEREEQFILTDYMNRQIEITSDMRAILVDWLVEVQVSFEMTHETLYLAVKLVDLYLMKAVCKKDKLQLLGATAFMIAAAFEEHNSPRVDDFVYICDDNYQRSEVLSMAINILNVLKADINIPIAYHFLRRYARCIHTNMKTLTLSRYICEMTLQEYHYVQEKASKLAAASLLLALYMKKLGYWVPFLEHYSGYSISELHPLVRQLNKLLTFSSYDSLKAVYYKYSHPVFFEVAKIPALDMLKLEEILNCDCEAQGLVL
Variant | normalised enrichment score
S1F | 2.68
A3E | 0.277
G10T | 1.1
S6N | 0.61
R4Q | -0.297
N2T | 1.67
G11Q | 1.59
R5E | 0.238
L7V | 0.0229
T13N | 1.58
A3F | 1.05
R5D | 0.529
F9V | 0.0379
S1N | 1.32
R5W | 0.00991
R5A | 0.295
G11D | 1.58
G10W | 0.533
L7E | 0.272
F9K | 0.0391
S12Y | 1.35
T13Y | 1.14
R5G | -0.0731
N8Y | 0.915
F9M | 0.707

Set 3
Target: Centromere-binding protein 1, full length, His-tagged (CBF1, Saccharomyces cerevisiae, UniProt P17106, residues 1-351)
UniProt P17106, sequence (whole entry, looked up): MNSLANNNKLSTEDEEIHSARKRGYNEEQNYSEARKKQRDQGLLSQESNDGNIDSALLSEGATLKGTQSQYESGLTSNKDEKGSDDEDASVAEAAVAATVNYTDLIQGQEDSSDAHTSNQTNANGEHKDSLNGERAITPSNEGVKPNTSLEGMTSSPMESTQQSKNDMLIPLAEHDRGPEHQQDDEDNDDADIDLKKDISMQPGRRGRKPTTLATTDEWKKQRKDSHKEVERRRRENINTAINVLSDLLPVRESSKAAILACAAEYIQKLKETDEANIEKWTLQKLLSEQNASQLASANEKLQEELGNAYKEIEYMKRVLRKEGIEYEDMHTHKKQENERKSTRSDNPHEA
Method: competition protein-binding microarray
Form: double-stranded DNA, one strand shown
Sample: in vitro
Tested at: 2 µM
Notes: whole 60-bp probe, lowest competitor level
Added: Pho4 competitor, 0.05 µM
Direction: higher = stronger binding
Constant ends, left off below: … GTCTTGATTCGCTTGACGCTGCTG
Strand | fluorescence intensity [a.u.]
GTAACGACTCTCTATCAGGTGCTGTTATTGCAGCGA | 133
AATTCCAATCAAAAAGTTGGTGTTAGGCTATACTGA | 72.5
AAATTACTAAGTTGTCACAACACTTACCCCGTATGA | 111
CTTCCAAGGTGAGGACACGGGTTCGATTCTCGTACC | 92.3
ACAATTTCTACTCCACACGTGGAATACGAAACGGCC | 373
ATAAAGTGTCCCTGTCACACTCATACAACAACTGTT | 76.8
GTCTTGTCTCATTGTCACGCGACTTTCCCCACTTCA | 560
AAAGCGGTAATTTGGAACGTGGGTGCAGATATCTAT | 98.6
ATACGCCTTTTCGATGGCGTGCTTTTTAATATGTCT | 102
CAATTTACATGTTCCAACGTGACTCGAGAAAGCATG | 675
CTAACGAAGGTTTGTACCGTGGGTGACAAGCCAAGT | 64.5
CTAACGAAGGTTTGGGGAGTGGGTGACAAGCCAAGT | 59.9
CGTCCTAGTGATTTTCACGTGAGTTCCATGAGGAAG | 994
AAATTACTAAGTTGGGCTGTGGGTGACGCCGTATGA | 60.3
GTAACGAAGCTTACCAGCATGATAATACCGTAAATC | 77.1
GGGTGTTTTAAAAAGCACCTGACTTTTTCAATTGAA | 948

Set 4
Target: RNA binding protein fox-1 homolog 2, RRM domain, GST-SBP tag (RBFOX2, Homo sapiens, UniProt O43251-10, residues 100-194)
Method: RNA Bind-n-Seq
Form: RNA
Sample: in vitro
Tested at: 365 nM
Notes: natural RNA segment, single round, ends assumed
Baseline: no-protein control
Direction: higher = stronger binding
Constant ends, left off below: GGGAGUUCUACAGUCCGACGAUC … UGGAAUUCUCGGGUGCCAA
Construct (chain): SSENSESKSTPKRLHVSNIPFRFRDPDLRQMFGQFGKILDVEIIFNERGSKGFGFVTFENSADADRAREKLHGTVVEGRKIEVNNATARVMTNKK
Strand | RBNS enrichment (R)
UAGACAGUUCCAGGUCUCAGCUUCCUGUCCUCUAGUUCUGCUGUUCGGGCAUAAAAUCUUUAUCUCCAGUUCAUAUAAUCUUGAGUUUUAGAUAUACACACAUGCGUAAC | 0.301
UCCAAAUUGUUCUGUAUAAAGAUGCUCUUAAAAGACACAAGAGUUAUCCUAGAACCUUAAUUCUUUUUUAUUUGAAAUUUUAAGUCAAGUCCUUUAUAAAGACCAUAGCA | 1.31
CAACACUAAUUUAUUUUGUCUUGAGUUUUACUACAAGAUGAGACUAUGGAUCCCGCAUGCCUGAAUUCACUAAAGCCAAGGGUCUGUAAGCCACGCUGCUCUUCCGAGAC | 0.489
CCUGCCGCUAUAGUGAGCUAAUGUCCUGAAUCCAAAGGCUUCAGAAAAUUGCUUUUGCCUUUUUCAUGAAUGUUAAGCAGCAGCAUUGUGAGAUCGAUCUGUCCUGGCAG | 0.523
CAUGCCUGGGAAGAGGUCCUCAGUGUGAGUUGGGGUCAAACUUGGGCUCCAAGCUGCUUGAGGGGGUCAACCUUGGACCAAAGUUGCCUUAAGCCCCAAGUAUAAAAGAG | 0.411
GCUGUCUGCCAGGUCACCACUCUGAUACCCAGCGUUCUCUGGUUGCUCUCUGUUUCCAGUGAUUAAACACCCAUAACCAACGUUGCUGUCUGCUGCCACUGACAGUCCAG | 0.283
AGUUCUUAAUUUUAAACUGUCAGUUCUUGAGAUAUACCGUGUGAAGCUAUUGUCAGCUUCUCUAUUUCAAAAUGCAAUCAGCAUAUAACUAUAUUGAUAUUAGAAGAUAU | 0.429
CUCACCUUGGGUGUAGGGGUCAGUAGCAGCCACUCGCCCUUGCUCCAGUCCUUUGGGAGCCUGUCAGGAGACAAAGCUCAGGAUGCUGCUUGUGCUAGGAACACACCCUG | 0.445
CUCCUCCUUUGGAGAAGCAAUAAUUCAUGGGGGAUGAUACAGUAGCACUUUACAAAUGGCUCCAUGUCAUUCAUCCCAGGGGCCAUAAUCUCUUGCACCACCUAUUCUUA | 0.223
CAGGAACCCAUUGUGGAGUAGACUCUCUUCUUCUAUGGAGCCUCUGACAUGGGGAGCAAUGCUAAGCAAGCUAAGUGUAAAAGAAAAGUGACAGAAUAAUUUUGGAAGAG | 0.706
CCUUUAUGUGAGAAAUCCAAGAAAGUGUUCACUUUUUUGGGAUGCGAGACUCCUUGGUCUCAUUUGCCUUCACUUUGCAUUUGUUAGUGACCUCCACUAACCCCCACUUC | 0.65
AACUCUGACUUGUGCCAACAAUAGGAUGACCCAAGGGAGAGGAAACCUAUCCUCCUCACCAGAAGAGCCUGUGUUUUUCUGCUGAACACCCACUGUUCCUGAGGACUCCU | 0.163

Set 5
Target: JUND, bZIP domain (human)
Method: DHFR protein complementation
Sample: yeast
Notes: single substitutions, most at no-binding floor
Baseline: wild-type JUN-FOS pair
Direction: higher = stronger binding
Parent: JUN, bZIP domain (human); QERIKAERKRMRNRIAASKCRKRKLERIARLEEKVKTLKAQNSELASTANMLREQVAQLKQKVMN
Variant | binding fitness
L31N | -1.37 natural log
L45C | -1.42 natural log
L31C | -1.43 natural log
V35E | -1.3 natural log
L38F | -1.42 natural log
A29P | -1.36 natural log
L38T | -1.49 natural log
N42E | -1.33 natural log
K36P | -1.42 natural log
R53I | -1.27 natural log
N42L | -1.32 natural log
L38C | -1.45 natural log
L45R | -1.42 natural log
L45Q | -1.43 natural log
V56W | -1.26 natural log
N42I | -1.36 natural log

Set 6
Target: UBE2M UBC core domain (UniProt P61081)
Method: yeast two-hybrid
Sample: yeast
Notes: mostly zero background
Baseline: not given
Direction: higher = stronger interaction
B1: RNF31 RING domain (UniProt Q96EP0); chain AFLRRLLAQECAVCGWALPHNRMQALTSCECTICPDCFRQHFTIALKEKHITDMVCPACGRPDLTDDTQLL
B2: RNF152 RING domain (UniProt Q8N8N0); chain ETLSQDSLLECQICFNYYSPRRRPKLLDCKHTCCSVCLQQMRTSQKDVRCPWCRGVTKLPPGFS
B3: MYCBP2 RING domain (UniProt O75592); chain TSLKQDADDMCMICFTEALSAAPAIQLDCSHIFHLQCCRRVLENRWLGPRITFGFISCPICKNKINHIVLKD
B4: TRIM54 RING domain (UniProt Q9BYV2); chain SMDNLEKQLICPICLEMFSKPVVILPCQHNLCRKCANDVFQASNPLWQSRGSTTVSSGGRFRCPSCRHEVVLDRHGV
B5: MKRN2 RING domain (UniProt Q9H000); chain FAFQASQDKVCSICMEVILEKASASERRFGILSNCNHTYCLSCIRQWRCAKQFENPIIKSCPECRVISEFVIPSV
B6: RNF2 RING domain (UniProt Q99496); chain SPRSLHSELMCPICLDMLKNTMTTKECLHRFCADCIITALRSGNKECPTCRKKLVSKRSLR
B7: TRIM37 RING domain (UniProt O94972); chain SVESIAEVFRCFICMEKLRDARLCPHCSKLCCFSCIRRWLTEQRAQCPHCRAPLQLRELVN
B8: RNF122 RING domain (UniProt Q9H9V4); chain AKKLQLYGQTCAVCLEDFKGKDELGVLPCQHAFHRKCLVKWLEVRCVCPMCNKPIASPSEAT
B9: TRIM22 RING domain (UniProt Q8IYM9); chain VKVDIEKEVTCPICLELLTEPLSLDCGHSFCQACITAKIKESVIISRGESSCPVCQTRFQPGNLRP
B10: TRIM60 RING domain (UniProt Q495X7); chain ALVNLQEESSCPICLEYLKDPVTINCGHNFCRSCLSVSWKDLDDTFPCPVCRFCFPYKSFRR
Residues (chain): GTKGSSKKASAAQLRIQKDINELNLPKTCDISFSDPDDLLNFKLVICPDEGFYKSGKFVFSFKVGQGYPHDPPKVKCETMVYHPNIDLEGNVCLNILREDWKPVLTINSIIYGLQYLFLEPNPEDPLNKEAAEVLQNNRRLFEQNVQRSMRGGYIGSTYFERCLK
Sequence | lacZ reporter activity
B1 (RNF31 RING domain) | 0
B2 (RNF152 RING domain) | 0
FVKTVEDKYKCEKCHLVLCSPKQTECGHRFCESCMAALLSSSSPKCTACQESIVKDKVF (TRAF3 RING domain (UniProt Q13114)) | 0
LDAASGHPLVCPLCHGQYERPCLLDCFHDFCTGCLRGRATDGRLSCPLCQHQTLVKGPSG (Rnf207 RING domain (UniProt Q3V3A7)) | 0
B3 (MYCBP2 RING domain) | 0
B4 (TRIM54 RING domain) | 0
MNDVLENELQCIICSEYFIEAVTLNCAHSFCSYCINEWMKRKIECPICRKDIKSKTYSL (RNF8 RING domain (UniProt O76064)) | 0
LGTKLEAKYLCSACRNVLRRPFQAQCGHRYCSFCLASILSSGPQNCAACVHEGIYEEGIS (TRAF2 RING domain (UniProt Q12933)) | 0
B5 (MKRN2 RING domain) | 0
B6 (RNF2 RING domain) | 0
B7 (TRIM37 RING domain) | 0
QVQSRTKIEECVVCSDKKAAVLFQPCGHMCACENCANLMKKCVQCRAVVERRVPFI (MIB1 RING domain (UniProt Q86YT6)) | 0
PEELAVNNDDCAICWDSMQAARKLPCGHLFHNSCLRSWLEQDTSCPTCRMSLNIADNNR (AMFR RING domain (UniProt Q9UKV5)) | 0
B8 (RNF122 RING domain) | 0
B9 (TRIM22 RING domain) | 0
B10 (TRIM60 RING domain) | 0

Repeated from above (set 2):
Variant | normalised enrichment score
S6N | 0.61
R4Q | -0.297
N2T | 1.67
G11Q | 1.59
R5E | 0.238
L7V | 0.0229
T13N | 1.58
A3F | 1.05
R5D | 0.529
F9V | 0.0379
S1N | 1.32
R5W | 0.00991
R5A | 0.295
G11D | 1.58
G10W | 0.533
L7E | 0.272
